Published values collected from several papers.
Several values in a cell are separate wells, animals, samples, runs or records. Numbers after ± are the reported error.
UCHL1: Ubiquitin carboxyl-terminal hydrolase isozyme L1 (UCHL1, Homo sapiens, UniProt P09936)
Chain of UniProt P09936 (whole entry, looked up): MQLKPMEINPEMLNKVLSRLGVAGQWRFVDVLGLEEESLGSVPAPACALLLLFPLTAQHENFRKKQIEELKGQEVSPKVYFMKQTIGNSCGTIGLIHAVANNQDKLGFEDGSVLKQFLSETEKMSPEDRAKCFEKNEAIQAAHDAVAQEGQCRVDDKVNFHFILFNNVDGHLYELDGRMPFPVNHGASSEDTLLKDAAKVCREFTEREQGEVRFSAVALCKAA
Histone acetyltransferase RTT109 with Vps75: Histone acetyltransferase RTT109, with Vps75 (Saccharomyces cerevisiae, UniProt Q07794)
Chain of UniProt Q07794 (whole entry, looked up): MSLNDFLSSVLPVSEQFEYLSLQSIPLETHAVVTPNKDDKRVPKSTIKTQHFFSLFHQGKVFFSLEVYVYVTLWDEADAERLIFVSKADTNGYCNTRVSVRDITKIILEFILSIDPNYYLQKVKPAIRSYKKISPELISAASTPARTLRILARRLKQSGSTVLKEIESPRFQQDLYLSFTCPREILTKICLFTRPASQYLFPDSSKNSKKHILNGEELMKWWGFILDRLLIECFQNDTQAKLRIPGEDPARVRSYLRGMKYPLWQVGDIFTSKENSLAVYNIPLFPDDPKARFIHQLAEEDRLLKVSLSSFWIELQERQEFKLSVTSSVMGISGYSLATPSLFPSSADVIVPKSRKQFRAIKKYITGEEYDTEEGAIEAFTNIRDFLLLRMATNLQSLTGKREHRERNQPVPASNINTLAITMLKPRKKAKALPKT

`O=C(C#Cc1ccc(F)c(F)c1)c1ccccc1` has a biofilm formation of 77% (Pseudomonas aeruginosa; static biofilm; PA14; 10 µM, 24 h, static; baseline: DMSO).
Under “log2 fold change”, `c1coc(-c2n[nH]cc2-c2ccnc3ccccc23)c1` is recorded as -0.25 (CMK1 (Candida albicans); kinase binding, MIB/MS competition; Candida albicans lysate; 1 µM; baseline: DMSO).
`O=C1c2ccccc2C(=O)c2c(NCCc3ccc(O)cc3)ccc(NCCc3ccc(O)cc3)c21` has an EC90 of 11.9 µM (Toxoplasma gondii; parasite growth; HFF, bradyzoite, glutamine-induced).
For `COc1cc(C#CC(=O)C(C)C)ccc1O`, the biofilm formation was 76% (Pseudomonas aeruginosa; static biofilm; PA14; 10 µM, 24 h, static; baseline: DMSO).
The sarcomere length of `O=C(O)CNC(=O)Cc1ccccc1` is reported as 1.62 µm (ventricular cardiomyocytes, C57BL/6 mouse; dose not given, 0.54 s).
With `COc1cccc(C(=O)C#Cc2ccc(O)c(OC)c2)c1` the mRNA level was 29% (Pseudomonas aeruginosa; RT-qPCR, item: lasB; biofilm cells; 10 µM, 24 h; baseline: untreated).
For `CC(=Cc1ccccc1)C=C(C#N)C(=O)Nc1ccc2c(c1)OCCO2`, the labelling was 14.3% (UCHL1; covalent, intact protein LC-MS; 12.5 µM).
`O=c1[nH]cc(F)c(=O)[nH]1` has an EC90 of 1.18 µM (Toxoplasma gondii; parasite growth, luciferase reporter; HFF, tachyzoite; 72 h).
`COc1cc(C#CC(=O)c2ccccc2OC)ccc1O` gave a mRNA level of 46% (Pseudomonas aeruginosa; RT-qPCR, item: phzC1; biofilm cells; 10 µM, 24 h; baseline: untreated).
`OC[C@H]1O[C@@H]2O[C@H]3[C@H](O)[C@@H](O)[C@@H](O[C@H]4[C@H](O)[C@@H](O)[C@@H](O[C@H]5[C@H](O)[C@@H](O)[C@@H](O[C@H]6[C@H](O)[C@@H](O)[C@@H](O[C@H]7[C@H](O)[C@@H](O)[C@@H](O[C@H]8[C@H](O)[C@@H](O)[C@@H](O[C@H]1[C@H](O)[C@H]2O)O[C@@H]8CO)O[C@@H]7CO)O[C@@H]6CO)O[C@@H]5CO)O[C@@H]4CO)O[C@@H]3CO` gave a bioluminescence induction of 881 ± 6 RLU (LuxR; Escherichia coli sensor; 20 µM; higher = stronger induction).
For `C[C@H](Oc1ccc(Br)cc1-c1ccon1)C(=O)O`, “difference from placebo” read 0.165 ms (MVRC latency; human, tibialis anterior muscle; 800 mg, SAD).
The labelling of `O=C(CCl)Nc1nc(-c2cc(F)ccc2F)cs1` is reported as 9.83% (UCHL1; covalent, intact protein LC-MS; 12.5 µM).
`C=C1C(=O)O[C@H]2[C@H]1CC/C(C)=C/CC[C@@]1(C)O[C@@H]21` gave an EC50 of 5.92 µM (Toxoplasma gondii; parasite growth; HFF, bradyzoite, glutamine-induced).
`CC(C)C[C@H](NC(=O)C[C@H](O)[C@H](CC(C)C)NC(=O)[C@H](Cc1c[nH]cn1)NC(=O)CNC(=O)[C@@H](NC(=O)[C@H](C)NC(=O)[C@H](Cc1c[nH]c2ccccc12)NC(=O)[C@H](CCC(N)=O)NC(=O)[C@@H](Cc1ccccc1)NC(=O)COCCOCCNC(=O)CCC(C(=O)O)N1CCN(CC(=O)O)CCN(CC(=O)O)CCN(CC(=O)O)CC1)C(C)C)C(N)=O` (stereo partly shown) [lutetium-177 labelled] has a tissue uptake of 1.2 ± 0.4 %ID/g (BALB/c nu/nu mice, large intestine; 100 pmol, 1 h, with: PA 300 µg).
For `CC(C)[C@H](NC(=O)[C@H](Cc1ccc(O)cc1)NC(=O)[C@H](Cc1ccc(O)cc1)NC(=O)[C@@H]1CCCN1C(=O)[C@H](CCC(=O)O)NC(=O)[C@H](CCC(=O)O)NC(=O)[C@H](Cc1c[nH]c2ccccc12)NC(=O)[C@@H]1CCCN1C(=O)[C@@H](NC(=O)[C@H](CCC(N)=O)NC(=O)c1ccc2c(c1)C(=O)OC21c2ccc(O)cc2Oc2cc(O)ccc21)C(C)C)C(=O)N[C@H](C(=O)N[C@@H](CCCCN)C(=O)N[C@@H](CCCCN)C(=O)N[C@@H](CO)C(=O)N[C@@H](CO)C(=O)NCC(=O)NCC(N)=O)C(C)C`, the plasma concentration was 215 ng/mL and 1760 ng/mL (human, plasma; intravenous infusion, 400 mg, 0.08333 h after infusion start).
`Nc1nc(-c2ccccc2)nc2[nH]nc(Nc3ccc(C(F)(F)F)cc3)c12` gave a clinical score of 0.11 (coxsackievirus B3; 31-1-93, NMRI mice, CVB3 chronic myocarditis; oral, 100 mg/kg twice daily, day 14, dosed days 1 to 7, score scale 0 to 7; direction not given).
The sarcomere length of `CC(C)NCC(O)c1ccc(O)c(O)c1` (stereo not shown) is reported as 1.5 µm (ventricular cardiomyocytes, C57BL/6 mouse; dose not given, 0.548 s).
`COc1cc(C#C[C@H](O)CC(C)C)ccc1O` gave a biofilm formation of 72% (Pseudomonas aeruginosa; static biofilm; PA14; 10 µM, 24 h, static; baseline: DMSO).
For `O=C(Nc1ccncc1)c1cc([N+](=O)[O-])ccc1Cl`, the EC50 was 0.75 µM (Toxoplasma gondii; parasite growth, luciferase reporter; HFF host cells, tachyzoites; 72 h).
`OC(CCN1CCCCC1)(c1ccccc1)C1CC2C=CC1C2` (stereo not shown) — result for “EEG Alpha2-power Fz-Cz”: 2.2 µV² (resting-state EEG; healthy elderly humans; oral, 2 mg, eyes closed, LS mean).
For `COc1cc(C#CC(=O)C2CCCCC2)ccc1O`, the growth inhibition was 20% (Pseudomonas aeruginosa; optical density; 100 µM).
For `Cn1cc(-c2ccc(-c3cncc(Cl)c3N3CCC4(CCNC4=O)CC3)cc2)cn1`, “log2 fold change” read 1.38 (COLO 205; gene expression, microarray, item: TGFB3 mRNA; concentration not given, 2 h; baseline: untreated cells).
For `Oc1ncnc2[nH]ncc12`, the EC90 was 30 µM (Toxoplasma gondii; parasite growth; HFF, bradyzoite, alkaline-induced).
`Oc1ccccc1-c1n[nH]cc1-c1ccnc2ccccc12` — result for “log2 fold change”: 0.13 (VPS15 (Candida albicans); kinase binding, MIB/MS competition; Candida albicans lysate; 1 µM; baseline: DMSO).
`CCN(CC)CCNC(=O)c1c(C)[nH]c(/C=C2\C(=O)Nc3ccc(F)cc32)c1C` has an inhibition of 80% (CaMKII (rat); kinase activity, inhibitor; 10 µM).
`C[C@H]1C[C@H]2CSC(N)=N[C@@]2(c2nc(NC(=O)c3ccc(OC(F)F)cn3)cs2)CO1`: “percent change from baseline” -67% (item: Aβ1-40; healthy adults, plasma; 12 mg single dose, 8 h post-dose; baseline: placebo).
`O=C(C#Cc1ccc(F)c(F)c1)c1ccc(Cl)cc1` has a biofilm formation of 62% (Pseudomonas aeruginosa; static biofilm; PA14; 10 µM, 24 h; baseline: DMSO).
The IC50 of `O=S1(=O)CC(Sc2ccc(Cl)cc2)c2ccccc21` (stereo not shown) is reported as over 125 µM (Histone acetyltransferase RTT109 with Vps75; enzyme activity, inhibitor, HTS, CPM-based, dose response).
`CC(C)(C)c1ccc(S(=O)(=O)/C=C/C#N)cc1` gave an EC50 of 6.19 µM (Toxoplasma gondii; parasite growth; HFF, bradyzoite, glutamine-induced).
For `COc1cccc(C(=O)C#Cc2ccc(F)c(F)c2)c1`, the mRNA level was 18% (Pseudomonas aeruginosa; RT-qPCR, item: rhlA; biofilm cells; 10 µM, 24 h; baseline: untreated).
`C[n+]1cc2c3c(ccc2c2ccc4cc5c(cc4c21)OCO5)OCO3` has an EC90 of 1.6 µM (Toxoplasma gondii; parasite growth; HFF, bradyzoite, alkaline-induced).
For `Clc1cccc(Nc2nc(-c3ccncc3)no2)c1`, the IC50 was over 125 µM (Histone acetyltransferase RTT109 with Vps75; enzyme activity, inhibitor, HTS, CPM-based, dose response).
For `CC(=O)[C@]1(O)Cc2c(O)c3c(c(O)c2[C@@H](O[C@H]2C[C@H](N)[C@H](O)[C@H](C)O2)C1)C(=O)c1ccccc1C3=O`, the EC90 was 3.18 µM (Toxoplasma gondii; parasite growth; HFF, bradyzoite, alkaline-induced).
The percent change of `NC(=O)c1cnc2[nH]ccc2c1N[C@@H]1[C@@H]2CC3C[C@H]1C[C@@](O)(C3)C2` is reported as -0.52% (CD4+ central memory T cells, flow cytometry; Caucasian humans, peripheral blood; 60 mg single dose; baseline: baseline).
